Results of several laboratories.
Numbered parts are unrelated; each lists some results of a single study. Values joined by “and” are separate records of one study, mostly repeats; a detail may differ.
Sequence of UniProt P0C1S8 (whole entry, looked up): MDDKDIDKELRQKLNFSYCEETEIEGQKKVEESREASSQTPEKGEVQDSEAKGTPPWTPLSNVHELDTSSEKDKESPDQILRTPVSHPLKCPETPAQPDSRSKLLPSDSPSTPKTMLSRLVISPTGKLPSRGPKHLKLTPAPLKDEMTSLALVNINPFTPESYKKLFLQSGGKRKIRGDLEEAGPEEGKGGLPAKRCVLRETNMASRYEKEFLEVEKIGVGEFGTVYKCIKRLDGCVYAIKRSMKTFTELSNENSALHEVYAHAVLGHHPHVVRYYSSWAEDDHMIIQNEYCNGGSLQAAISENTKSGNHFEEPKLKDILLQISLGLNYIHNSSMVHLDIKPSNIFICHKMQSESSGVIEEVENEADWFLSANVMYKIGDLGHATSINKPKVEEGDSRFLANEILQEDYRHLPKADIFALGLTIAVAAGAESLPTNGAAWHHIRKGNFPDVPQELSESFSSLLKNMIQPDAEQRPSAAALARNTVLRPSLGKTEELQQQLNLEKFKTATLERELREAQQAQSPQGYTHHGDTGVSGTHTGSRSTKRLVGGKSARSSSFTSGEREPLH
Sequence of UniProt Q8IW41 (whole entry, looked up): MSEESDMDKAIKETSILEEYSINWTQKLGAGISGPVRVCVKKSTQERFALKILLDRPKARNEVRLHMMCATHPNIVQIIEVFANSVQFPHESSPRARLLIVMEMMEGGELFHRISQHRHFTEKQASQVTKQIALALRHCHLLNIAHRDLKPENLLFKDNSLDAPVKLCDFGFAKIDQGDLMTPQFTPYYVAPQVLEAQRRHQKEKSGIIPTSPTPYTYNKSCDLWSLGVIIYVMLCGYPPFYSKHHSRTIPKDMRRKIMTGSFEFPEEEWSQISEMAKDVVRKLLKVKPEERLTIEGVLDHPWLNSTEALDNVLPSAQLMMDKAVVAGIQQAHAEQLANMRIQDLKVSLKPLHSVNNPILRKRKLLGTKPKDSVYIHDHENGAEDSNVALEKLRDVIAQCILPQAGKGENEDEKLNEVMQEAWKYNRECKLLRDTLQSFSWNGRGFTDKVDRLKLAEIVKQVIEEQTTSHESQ
Sequence of UniProt P00519 (whole entry, looked up): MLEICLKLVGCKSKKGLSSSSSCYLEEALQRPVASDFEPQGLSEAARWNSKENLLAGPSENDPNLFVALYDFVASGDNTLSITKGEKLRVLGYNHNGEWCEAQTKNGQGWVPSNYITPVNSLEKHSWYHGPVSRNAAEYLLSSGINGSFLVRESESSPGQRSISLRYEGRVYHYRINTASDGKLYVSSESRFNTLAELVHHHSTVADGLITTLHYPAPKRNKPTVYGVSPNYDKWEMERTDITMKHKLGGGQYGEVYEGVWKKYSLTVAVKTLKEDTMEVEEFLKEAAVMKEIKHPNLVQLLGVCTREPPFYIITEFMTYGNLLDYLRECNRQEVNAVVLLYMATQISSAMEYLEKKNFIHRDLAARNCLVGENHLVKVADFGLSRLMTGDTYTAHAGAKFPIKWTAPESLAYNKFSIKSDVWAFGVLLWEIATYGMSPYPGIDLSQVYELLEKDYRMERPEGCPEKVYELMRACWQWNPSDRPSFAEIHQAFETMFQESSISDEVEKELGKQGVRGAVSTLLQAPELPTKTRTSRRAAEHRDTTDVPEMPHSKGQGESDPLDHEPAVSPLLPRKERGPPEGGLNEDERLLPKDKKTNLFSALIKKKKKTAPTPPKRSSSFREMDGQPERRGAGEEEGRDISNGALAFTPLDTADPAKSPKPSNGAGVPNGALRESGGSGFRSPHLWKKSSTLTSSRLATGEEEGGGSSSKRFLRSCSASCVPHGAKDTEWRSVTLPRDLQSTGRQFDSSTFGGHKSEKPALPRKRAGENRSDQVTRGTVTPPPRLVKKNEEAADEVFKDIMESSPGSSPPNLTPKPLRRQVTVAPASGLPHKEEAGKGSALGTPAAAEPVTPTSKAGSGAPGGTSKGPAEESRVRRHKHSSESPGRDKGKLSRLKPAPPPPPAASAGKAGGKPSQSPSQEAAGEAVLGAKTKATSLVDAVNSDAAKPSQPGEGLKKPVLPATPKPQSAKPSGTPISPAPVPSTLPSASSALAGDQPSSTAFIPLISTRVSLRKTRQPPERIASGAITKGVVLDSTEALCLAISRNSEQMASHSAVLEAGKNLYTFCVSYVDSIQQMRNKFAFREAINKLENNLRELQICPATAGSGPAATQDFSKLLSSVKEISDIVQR
Sequence of UniProt Q13554 (whole entry, looked up): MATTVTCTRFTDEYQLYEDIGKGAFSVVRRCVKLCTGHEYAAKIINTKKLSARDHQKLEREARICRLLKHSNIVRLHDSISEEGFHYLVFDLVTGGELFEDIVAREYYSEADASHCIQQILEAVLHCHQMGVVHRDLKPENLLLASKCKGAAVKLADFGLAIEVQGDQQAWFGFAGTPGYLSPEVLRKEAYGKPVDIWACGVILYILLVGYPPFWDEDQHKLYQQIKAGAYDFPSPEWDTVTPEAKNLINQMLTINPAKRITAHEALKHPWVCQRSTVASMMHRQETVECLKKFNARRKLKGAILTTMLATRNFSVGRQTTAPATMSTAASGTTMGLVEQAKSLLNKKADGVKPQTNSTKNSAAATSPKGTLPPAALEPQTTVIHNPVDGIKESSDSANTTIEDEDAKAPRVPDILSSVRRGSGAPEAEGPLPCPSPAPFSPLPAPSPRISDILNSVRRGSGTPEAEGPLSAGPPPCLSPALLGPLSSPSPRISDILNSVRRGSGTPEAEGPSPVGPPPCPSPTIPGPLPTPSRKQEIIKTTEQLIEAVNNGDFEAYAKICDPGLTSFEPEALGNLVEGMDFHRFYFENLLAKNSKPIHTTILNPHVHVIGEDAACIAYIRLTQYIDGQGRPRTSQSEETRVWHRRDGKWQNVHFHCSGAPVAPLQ
Sequence of UniProt P49674 (whole entry, looked up): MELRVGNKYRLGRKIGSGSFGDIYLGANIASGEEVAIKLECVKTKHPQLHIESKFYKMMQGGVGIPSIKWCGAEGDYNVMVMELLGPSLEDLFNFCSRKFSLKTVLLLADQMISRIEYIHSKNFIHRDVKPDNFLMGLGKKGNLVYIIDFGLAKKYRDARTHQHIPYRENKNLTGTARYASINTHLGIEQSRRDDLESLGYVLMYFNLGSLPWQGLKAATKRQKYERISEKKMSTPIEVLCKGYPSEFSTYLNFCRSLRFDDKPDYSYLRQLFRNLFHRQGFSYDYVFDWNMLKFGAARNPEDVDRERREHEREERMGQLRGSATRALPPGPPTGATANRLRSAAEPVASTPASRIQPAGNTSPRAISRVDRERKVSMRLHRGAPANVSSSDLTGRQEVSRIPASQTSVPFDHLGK

Block 1
Cell line: mouse MPNST tumor cells
Technique: high-content immunofluorescence imaging
Item: nuclear SOX9
Concentration: 10 µM
Time: 12 h
Setting: mean of 2 replicates
Reference: DMSO control
Direction: higher = more nuclear SOX9
Quantity: nuclear SOX9 intensity
CCOC(=O)[C@]12CC1/C(=N\O)c1ccccc1O2 (stereo partly shown): 102 % of DMSO
COc1c2occc2c(OC)c2c(=O)cc(C)oc12: 129 % of DMSO
Cc1cccc(-c2[nH]c(C34CCC(C(N)=O)(CC3)CC4)nc2-c2ccc3c(c2)OCO3)n1: 107 % of DMSO
COc1cc(C#N)ccc1S(=O)(=O)Nc1ccc2c(c1)cc(C)c(=O)n2C: 107 % of DMSO and 102 % of DMSO
CC#C[C@]1(O)CC[C@H]2[C@@H]3CCC4=CC(=O)CCC4=C3[C@@H](c3ccc(N(C)C)cc3)C[C@@]21C: 140 % of DMSO and 106 % of DMSO and 125 % of DMSO
N=C(N)NCC1COC2(CCCCC2)O1 (stereo not shown): 101 % of DMSO
Cc1ccc(-c2ncc(Cl)cc2-c2ccc(S(C)(=O)=O)cc2)cn1: 105 % of DMSO
CCN(CC)CCOC(=O)C1(c2ccc([N+](=O)[O-])cc2)CCCC1: 117 % of DMSO
CCCN1CCCC[C@H]1C(=O)Nc1c(C)cccc1C: 98 % of DMSO
CCOc1cc(N2CCC(O)CC2)ccc1Nc1ncc2c(n1)N(C)c1ccccc1C(=O)N2C: 134 % of DMSO
COc1cc2c(cc1OC)CN(C(=O)[C@@H](NCc1ccncc1)C(C)(C)C)CC2: 95.5 % of DMSO
CC(=O)NO: 96.6 % of DMSO
O=C(NCc1ccc2c(c1)OCO2)c1c(Cl)cccc1Cl: 111 % of DMSO
C[C@@](Cc1ccc(O)c(O)c1)(NN)C(=O)O: 114 % of DMSO

Block 2
Target: Insulin receptor-related protein (INSRR, Homo sapiens, UniProt P14616)
Sequence of UniProt P14616 (whole entry, looked up): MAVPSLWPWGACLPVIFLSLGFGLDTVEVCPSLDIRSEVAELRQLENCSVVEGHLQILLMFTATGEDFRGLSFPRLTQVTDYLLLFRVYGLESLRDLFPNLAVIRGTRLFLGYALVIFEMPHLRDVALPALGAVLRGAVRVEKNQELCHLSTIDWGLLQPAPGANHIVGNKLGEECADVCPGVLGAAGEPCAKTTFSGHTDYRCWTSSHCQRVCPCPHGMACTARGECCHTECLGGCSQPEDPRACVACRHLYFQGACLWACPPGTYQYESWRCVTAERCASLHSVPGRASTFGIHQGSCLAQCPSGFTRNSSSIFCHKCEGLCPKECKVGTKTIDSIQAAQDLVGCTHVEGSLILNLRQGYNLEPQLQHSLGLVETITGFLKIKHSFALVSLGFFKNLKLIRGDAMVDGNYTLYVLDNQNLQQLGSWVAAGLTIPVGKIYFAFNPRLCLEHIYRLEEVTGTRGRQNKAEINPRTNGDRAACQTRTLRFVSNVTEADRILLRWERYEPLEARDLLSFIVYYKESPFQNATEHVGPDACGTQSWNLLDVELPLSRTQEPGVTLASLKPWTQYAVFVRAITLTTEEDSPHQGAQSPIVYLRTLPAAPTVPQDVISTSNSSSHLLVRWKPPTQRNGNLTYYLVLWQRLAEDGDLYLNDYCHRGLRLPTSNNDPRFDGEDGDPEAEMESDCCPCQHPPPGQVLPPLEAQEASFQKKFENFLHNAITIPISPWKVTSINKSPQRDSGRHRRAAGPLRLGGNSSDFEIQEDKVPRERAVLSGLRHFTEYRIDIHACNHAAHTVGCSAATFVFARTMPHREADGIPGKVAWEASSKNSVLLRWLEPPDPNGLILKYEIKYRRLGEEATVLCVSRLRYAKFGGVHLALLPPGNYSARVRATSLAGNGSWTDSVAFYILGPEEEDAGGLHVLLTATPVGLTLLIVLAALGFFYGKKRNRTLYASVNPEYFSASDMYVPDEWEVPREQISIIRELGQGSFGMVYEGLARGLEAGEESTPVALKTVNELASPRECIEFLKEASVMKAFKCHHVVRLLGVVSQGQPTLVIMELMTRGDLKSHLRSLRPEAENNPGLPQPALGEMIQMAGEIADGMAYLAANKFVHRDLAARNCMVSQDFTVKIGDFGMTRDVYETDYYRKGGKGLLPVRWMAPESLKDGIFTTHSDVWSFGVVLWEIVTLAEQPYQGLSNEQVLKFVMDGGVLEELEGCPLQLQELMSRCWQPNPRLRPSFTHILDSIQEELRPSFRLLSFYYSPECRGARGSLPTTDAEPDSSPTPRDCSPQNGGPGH
Observed: enzyme activity
Mode: inhibitor
Concentration: 0.5 µM
Reference: control
Quantity: remaining activity
O=C1Nc2ccccc2/C1=C\c1c(Cl)[nH]c2ccccc12: 93.7%
O=C(c1cc2cc(O)ccc2[nH]1)c1cc2cc(O)ccc2[nH]1: 97.1%
CN(C)S(=O)(=O)c1ccc2c(c1)/C(=C/c1cc3c([nH]1)CCCC3)C(=O)N2: 93.3%
c1ccc2c(-c3ccncc3)c[nH]c2c1: 101%
O=C1NC(=O)c2c1c1c3ccccc3[nH]c1c1[nH]c3cc(Br)ccc3c21: 85.8%
c1ccc(-c2n[nH]c3c2oc2ccccc23)cc1: 104%
N#Cc1cnc2cnc(NCc3cccnc3)cc2c1Nc1ccc(F)c(Cl)c1: 97%
O=C1NC(=O)c2c1c1c3ccccc3[nH]c1n1cncc21: 20.7%
COc1cccc(-c2cc(=O)c3ccccc3o2)c1N: 98.4%
O=C1Cc2c([nH]c3ccc(Br)cc23)-c2ccccc2N1: 95.8%
CN1CCN(c2ccc3nc(-c4c(N)c5c(F)cccc5[nH]c4=O)[nH]c3c2)CC1: 67.1%
Cc1ccc(S(=O)(=O)/C=C/C#N)cc1: 98%
O=c1cc(N2CCOCC2)oc2c(-c3ccccc3)cccc12: 97.7%
O=C1Nc2ccc(Br)cc2/C1=C/c1cc2c([nH]1)CCCC2: 94.8%
CCCNC(=O)Nc1ccc(Oc2ncnc3cc(OC)c(OC)cc23)cc1Cl: 98.4%
O=Nc1c(-c2c(O)[nH]c3cc(Br)ccc23)[nH]c2ccccc12: 81%
CCCCc1c(-c2ccc(OC)cc2)[nH]c2nccnc12: 83.2%
Oc1cccc(-c2nc(N3CCOCC3)c3oc4ncccc4c3n2)c1: 114%
COc1ccc2c(c1)c(C1=C(c3c[nH]c4ccccc34)C(=O)NC1=O)cn2CCCN(C)C: 101%

Block 3
Target: Eukaryotic initiation factor 4A-III (Homo sapiens, UniProt P38919)
Sequence of UniProt P38919 (whole entry, looked up): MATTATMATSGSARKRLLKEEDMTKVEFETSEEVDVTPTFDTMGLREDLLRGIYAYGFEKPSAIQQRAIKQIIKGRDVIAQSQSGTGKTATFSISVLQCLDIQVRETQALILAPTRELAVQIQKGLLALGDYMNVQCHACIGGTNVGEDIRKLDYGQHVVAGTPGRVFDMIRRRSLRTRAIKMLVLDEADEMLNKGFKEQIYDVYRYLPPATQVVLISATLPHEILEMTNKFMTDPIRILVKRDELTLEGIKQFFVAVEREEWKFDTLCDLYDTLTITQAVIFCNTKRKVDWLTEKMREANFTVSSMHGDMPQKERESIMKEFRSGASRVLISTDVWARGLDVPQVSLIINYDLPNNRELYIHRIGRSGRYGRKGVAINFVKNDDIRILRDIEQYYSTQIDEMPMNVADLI
Observed: RNA clamping
Technique: fluorescence polarization
Concentration: concentration not given
With: FAM-labelled poly r(AG)8 RNA
Quantity: fluorescence polarization change
COc1ccc([C@@]23Oc4cc(OC)cc(OC)c4[C@@](O)(C2=O)[C@H](c2ccccc2)[C@H]3c2ccccc2)cc1: -0.8 mP
COc1ccc([C@@]23Oc4cc(OC)cc(OC)c4[C@]2(O)[C@H](O)[C@H](C(=O)c2ccco2)[C@H]3c2cccc(OC)c2)cc1: 17.6 mP
COC(=O)[C@H]1C(=O)[C@@]2(NCc3nccn3C)c3c(OC)cc(OC)cc3O[C@@]2(c2ccc(OC)cc2)[C@@H]1c1ccccc1: 2 mP
COC(=O)/C=C/Oc1nc(-c2ccccc2)nc2c1[C@@H](c1ccccc1)[C@]1(c3ccc(OC)cc3)Oc3cc(OC)cc(OC)c3[C@]21O: 0.4 mP
COCCN[C@@]12C(=O)C[C@@H](c3ccccc3)[C@]1(c1ccc(OC)cc1)Oc1cc(OC)cc(OC)c12: -1 mP
COc1cc(OC)c2c(c1)O[C@@]1(c3ccc(Br)cc3)[C@H](c3ccccc3)C3=C(N[C@H]4CCCN4C3=O)[C@@]21O: 18.6 mP
COCCOCOC(=C(F)F)c1ccc([C@@H]2[C@@H](C(=O)N(C)OC)[C@@H](O)[C@@]3(O)c4c(OC)cc(OC)cc4O[C@@]23c2ccc(OC)cc2)cc1: -4.1 mP
COC(=O)[C@@H]1[C@@H](O)[C@@]2(O)c3c(OC)cc(OS(=O)(=O)c4ccc(C)cc4)cc3O[C@@]2(c2ccc(OC)cc2)[C@H]1c1ccccc1: -5.5 mP
COC(=O)[C@@H]1[C@@H](c2ccccc2)[C@]2(c3ccc(OC)cc3)Oc3cc(OC)cc(OC)c3[C@@]23N=C(c2ccccc2)N[C@@]13O: 11.7 mP
COc1ccc([C@@]23Oc4cc(OC)cc(OC)c4[C@]2(O)c2nc(-c4cccc(OC)c4)[nH]c(=O)c2[C@H]3c2ccccc2)cc1: 8.8 mP and 26.8 mP
COC(=O)[C@@H]1[C@@H](c2ccccc2)[C@]2(c3ccc(OC)cc3)Oc3cc(OC)cc(OC)c3[C@@]23NC(c2csc(C)n2)=N[C@@]13O: 20.8 mP

Block 4
Compound: Cn1nc(C(F)(F)F)cc1-c1cnc(N2CCc3cc(S(=O)(=O)Nc4c(F)cc(Cl)cc4F)cc(N4CCCC4=O)c32)nc1
Concentration: 1 µM
Quantity: remaining binding
Leukocyte tyrosine kinase receptor (LTK, Homo sapiens, UniProt P29376); cell-free assay, competition with immobilised ligand: 94%
Serine/threonine-protein kinase SIK1 (SIK1, Homo sapiens, UniProt P57059); competition binding: 100%
Rho-associated protein kinase 2 (ROCK2, Homo sapiens, UniProt O75116); cell-free assay, competition with immobilised ligand: 85%
cGMP-dependent protein kinase 2 (PRKG2, Homo sapiens, UniProt Q13237); cell-free assay, competition with immobilised ligand: 90%
MAP kinase-activated protein kinase 5 (MAPKAPK5, Homo sapiens, UniProt Q8IW41); cell-free assay, competition with immobilised ligand: 95%
Cyclin-dependent kinase 15 (CDK15, Homo sapiens, UniProt Q96Q40); cell-free assay, competition with immobilised ligand: 100%
Receptor-type tyrosine-protein kinase FLT3 (FLT3, Homo sapiens, UniProt P36888, D835Y); cell-free assay, competition with immobilised ligand: 100%
Serine/threonine-protein kinase N2 (PKN2, Homo sapiens, UniProt Q16513); cell-free assay, competition with immobilised ligand: 82%
Serine/threonine-protein kinase RIO3 (RIOK3, Homo sapiens, UniProt O14730); cell-free assay, competition with immobilised ligand: 100%
Interferon-induced, double-stranded RNA-activated protein kinase (EIF2AK2, Homo sapiens, UniProt P19525); cell-free assay, competition with immobilised ligand: 100%
Tyrosine-protein kinase ABL1, phosphorylated (ABL1, Homo sapiens, UniProt P00519); cell-free assay, competition with immobilised ligand: 95%
Receptor-type tyrosine-protein kinase FLT3 (FLT3, Homo sapiens, UniProt P36888, ITD); cell-free assay, competition with immobilised ligand: 96%
Serine/threonine-protein kinase Sgk2 (SGK2, Homo sapiens, UniProt Q9HBY8); cell-free assay, competition with immobilised ligand: 100%
MAP kinase-interacting serine/threonine-protein kinase 1 (MKNK1, Homo sapiens, UniProt Q9BUB5); cell-free assay, competition with immobilised ligand: 72%
Receptor-type tyrosine-protein kinase FLT3 (FLT3, Homo sapiens, UniProt P36888); cell-free assay, competition with immobilised ligand: 85%
Serine/threonine-protein kinase WNK4 (WNK4, Homo sapiens, UniProt Q96J92); cell-free assay, competition with immobilised ligand: 83%
Proto-oncogene tyrosine-protein kinase receptor Ret (RET, Homo sapiens, UniProt P07949, M918T); cell-free assay, competition with immobilised ligand: 100%
Calcium/calmodulin-dependent protein kinase type II subunit beta (CAMK2B, Homo sapiens, UniProt Q13554); cell-free assay, competition with immobilised ligand: 92%
Tyrosine-protein kinase JAK3, JH1 (JAK3, Homo sapiens, UniProt P52333); cell-free assay, competition with immobilised ligand: 81%
Casein kinase I isoform epsilon (CSNK1E, Homo sapiens, UniProt P49674); cell-free assay, competition with immobilised ligand: 86%
Wee1-like protein kinase 2 (WEE2, Homo sapiens, UniProt P0C1S8); cell-free assay, competition with immobilised ligand: 100%
Insulin receptor-related protein (INSRR, Homo sapiens, UniProt P14616); cell-free assay, competition with immobilised ligand: 90%
Aurora kinase A (AURKA, Homo sapiens, UniProt O14965); cell-free assay, competition with immobilised ligand: 88%

For quick reference, copied from above (block 2):
O=C1Nc2ccccc2/C1=C\c1c(Cl)[nH]c2ccccc12: 93.7%
c1ccc2c(-c3ccncc3)c[nH]c2c1: 101%
CCCNC(=O)Nc1ccc(Oc2ncnc3cc(OC)c(OC)cc23)cc1Cl: 98.4%
CCCCc1c(-c2ccc(OC)cc2)[nH]c2nccnc12: 83.2%
Cc1ccc(S(=O)(=O)/C=C/C#N)cc1: 98%
O=C1NC(=O)c2c1c1c3ccccc3[nH]c1c1[nH]c3cc(Br)ccc3c21: 85.8%
COc1ccc2c(c1)c(C1=C(c3c[nH]c4ccccc34)C(=O)NC1=O)cn2CCCN(C)C: 101%
N#Cc1cnc2cnc(NCc3cccnc3)cc2c1Nc1ccc(F)c(Cl)c1: 97%
